Assay results pooled from the literature.
A part holds a random share of what one study measured.

Sample 1 — method: protein-binding microarray; form: double-stranded DNA, one strand shown; matrix: in vitro; concentration: not given; direction: higher = stronger binding
Target: Transcription factor Sp1 (SP1, Homo sapiens, UniProt P08047, residues 1-785, full length assumed)
Sequence of UniProt P08047 (whole entry, looked up): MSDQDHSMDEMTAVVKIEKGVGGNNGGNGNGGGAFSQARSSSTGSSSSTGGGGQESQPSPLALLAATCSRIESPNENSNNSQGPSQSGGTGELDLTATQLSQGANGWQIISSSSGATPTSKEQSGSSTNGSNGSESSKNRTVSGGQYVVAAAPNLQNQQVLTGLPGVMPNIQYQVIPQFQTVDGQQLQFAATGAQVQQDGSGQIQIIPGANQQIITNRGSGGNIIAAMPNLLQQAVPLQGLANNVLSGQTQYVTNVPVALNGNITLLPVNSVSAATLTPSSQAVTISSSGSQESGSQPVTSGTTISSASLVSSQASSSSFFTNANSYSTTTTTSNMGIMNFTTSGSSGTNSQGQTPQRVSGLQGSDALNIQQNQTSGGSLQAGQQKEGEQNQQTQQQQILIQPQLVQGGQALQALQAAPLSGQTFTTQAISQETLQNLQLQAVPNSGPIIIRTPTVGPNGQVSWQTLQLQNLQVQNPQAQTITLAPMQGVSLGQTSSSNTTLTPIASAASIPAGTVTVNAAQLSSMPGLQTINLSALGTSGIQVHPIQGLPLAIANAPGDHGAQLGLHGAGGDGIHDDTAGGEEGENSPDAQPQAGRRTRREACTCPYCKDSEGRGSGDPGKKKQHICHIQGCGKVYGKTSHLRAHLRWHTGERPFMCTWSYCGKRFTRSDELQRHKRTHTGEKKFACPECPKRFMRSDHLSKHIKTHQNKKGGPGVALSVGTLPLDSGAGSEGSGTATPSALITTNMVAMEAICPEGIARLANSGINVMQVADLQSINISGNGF
Setting: k-mer, scored over probes, only values ≥0.25
| Oligonucleotide | E-score |
| --- | --- |
| ATAACATA | 0.281 |
| GCACTCCC | 0.364 |
| GGGGCGTA | 0.474 |
| CCCCATAC | 0.362 |

Sample 2 — method: RNAcompete; form: RNA; matrix: in vitro; concentration: 20 nM; setting: 7-mer, probes averaged, single round; reference: mean of 7-mers; direction: higher = stronger binding
Target: PABPC1L2, full length, GST fusion (mouse, UniProt A0ABA7IW68)
Construct (chain): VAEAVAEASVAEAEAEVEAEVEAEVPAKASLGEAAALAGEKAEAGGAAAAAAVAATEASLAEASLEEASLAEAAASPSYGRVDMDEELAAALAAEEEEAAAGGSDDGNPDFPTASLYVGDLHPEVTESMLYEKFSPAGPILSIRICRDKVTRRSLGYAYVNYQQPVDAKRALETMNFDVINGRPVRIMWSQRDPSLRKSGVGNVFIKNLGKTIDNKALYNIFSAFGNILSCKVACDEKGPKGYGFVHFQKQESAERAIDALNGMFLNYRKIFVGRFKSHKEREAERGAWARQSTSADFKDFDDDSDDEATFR
| Oligonucleotide | 7-mer Z-score |
| --- | --- |
| UUCCCCC | -0.505 |
| AAUGGUA | 0.0497 |
| UCCCUAC | -0.447 |

Sample 3 — method: protein-binding microarray; form: double-stranded DNA, one strand shown; matrix: in vitro; concentration: 2200 nM top; setting: 60-bp whole probe; added: salmon DNA 0.4 mg/ml; reference: random background probes; direction: higher = stronger binding
Target: Interferon regulatory factor 7, full length, phosphomimetic (IRF7, Homo sapiens, UniProt Q92985, residues 1-503, S471D/S472D/S475D/S476D/S477D/S483D/S484D/S487D)
Sequence of UniProt Q92985 (whole entry, unmodified, looked up): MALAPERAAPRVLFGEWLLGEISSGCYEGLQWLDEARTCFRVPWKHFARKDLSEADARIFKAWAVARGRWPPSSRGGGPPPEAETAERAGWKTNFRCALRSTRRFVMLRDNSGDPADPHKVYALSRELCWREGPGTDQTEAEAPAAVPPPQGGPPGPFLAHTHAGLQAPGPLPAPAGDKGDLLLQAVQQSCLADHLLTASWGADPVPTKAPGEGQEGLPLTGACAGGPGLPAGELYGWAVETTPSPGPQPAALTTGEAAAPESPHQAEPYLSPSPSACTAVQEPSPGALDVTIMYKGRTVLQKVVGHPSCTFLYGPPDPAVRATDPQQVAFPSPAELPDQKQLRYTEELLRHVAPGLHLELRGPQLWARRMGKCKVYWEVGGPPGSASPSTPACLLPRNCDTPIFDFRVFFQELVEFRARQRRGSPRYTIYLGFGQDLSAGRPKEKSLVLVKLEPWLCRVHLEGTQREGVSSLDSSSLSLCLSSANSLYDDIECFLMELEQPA
| Oligonucleotide | fitted relative affinity [z-score] |
| --- | --- |
| GCCTAGCACTCAGATTTTCCCATGAGACTGTGCTAGGTCTTGATTCGCTTGACGCTGCTG | 1.07 |
| GCCTAGCACTTAGATATCAAACTGGATTAGTGCTAGGTCTTGATTCGCTTGACGCTGCTG | -0.44 |
| GCCTAGCACGACGGTTTCTGGTTTCGGGACGTGCTAGTCTTGATTCGCTTGACGCTGCTG | 6.3 |
| GCCTAGCACTTTGGACTGGACTATCGGTTAGTGCTAGTCTTGATTCGCTTGACGCTGCTG | 0.103 |

Single results of other studies
| Molecule | target | assay | test system | setting | how to read | measurement | value |
| --- | --- | --- | --- | --- | --- | --- | --- |
| PhoQ, residues 284 288 289 292 302 303 SIHMAM | PhoP, residues 12 14 15 18 19 FWNTL (Escherichia coli, UniProt P23836) | Sort-seq, refers to: YFP reporter | E. coli | PhoQ-PhoP variant library, added: 10 µM Mg2+ | reference: high Mg2+ state, higher = stronger signaling | fold induction | 5.99 |

Repeated from above (sample 1):
| Oligonucleotide | E-score |
| --- | --- |
| GGGGCGTA | 0.474 |
